Assay results gathered from unrelated publications.
Every numbered part comes from another study and shows a few of its results, in no order.

Series 1
Target: Fragile X messenger ribonucleoprotein 1, C-terminal low-complexity region (Fmr1, Mus musculus, UniProt P35922)
Method: RNA Bind-n-Seq
Molecule type: RNA
Matrix: in vitro
Tested at: 200 nM
Setting: whole 134-nt RNA, ends assumed
Added: 150 mM KCl
Reference: input library
Reading: higher = stronger binding
With `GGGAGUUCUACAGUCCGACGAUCUGUACUCGGAAGUUUCACUUACCAUCGACCACUCUCUGAUUCCGGAGGAGAGGCUCUCGCCCACCCCAUCCAUGCAGGAUGGGCUCGACCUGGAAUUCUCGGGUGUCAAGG` the log2 enrichment was -0.194.
`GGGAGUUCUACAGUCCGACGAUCUCAAGUCCUGUGCUACACAUCGUAUGUACCGAAUCGGAAAAAAAGGAAAGGUGGAAAGUAUUAUGUUACGCCGUUCGGAUCUGCACUUCCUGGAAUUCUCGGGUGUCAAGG` gave a log2 enrichment of -1.21.
The log2 enrichment of `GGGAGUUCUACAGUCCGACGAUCUAACUUUAGAGGAGGAUCUGAUGGAUAUGGCAGUGGACGUGGAUUUGGGGAUGGCUAUAAUGGGUAUGGAGGAGGACCUCGAGGUGGCAAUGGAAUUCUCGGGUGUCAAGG` is reported as -0.00891.
`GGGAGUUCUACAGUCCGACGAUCCAAGUCCUGUGCUACACAUCGUAUGUACCGAAUCGGGGUUUGGGUUUGGGGUUUGGAAAGUAUUAUGUUACGCCGUUCGGAUCUGCACUUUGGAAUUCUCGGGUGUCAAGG` gave a log2 enrichment of -0.0325.
`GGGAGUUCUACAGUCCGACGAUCUCCUGUGCUACACAUCGUAUGUACCGAAUCGGGAAAAAAAGGGAAAAAGGGAAAAAGGGAAAGUAUUAUGUUACGCCGUUCGGAUCUGCAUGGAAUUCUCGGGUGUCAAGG` gave a log2 enrichment of -0.179.
`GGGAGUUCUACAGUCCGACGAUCUCUUGUAUGACUUAACCCCUGUUUCUAAUACAGGGGCCGCUCUCCUCAGCCUCCUGCUGAAGAGGAUGAAGAUGACUUUGAUGAUACCCUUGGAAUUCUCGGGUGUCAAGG` has a log2 enrichment of -0.125.
With `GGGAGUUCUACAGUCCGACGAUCUGGCCCUGGUGGCAUGCGGGGAGGAAGAGGUGGCCUCAUGGAUCGUGGUGGUCCCGGUGGAAUGUUCAGAGGUGGCCGUGGUCGAGACAGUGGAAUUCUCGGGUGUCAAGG` the log2 enrichment was -0.219.
`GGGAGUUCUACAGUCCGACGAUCUCCUGUGCUACACAUCGUAUGUACCGAAUCAAACCCCCCCAAACCCAAACCCCCCCAAAAAAGUAUUAUGUUACGCCGUUCGGAUCUGCAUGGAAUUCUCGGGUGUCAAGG` gave a log2 enrichment of -0.191.
`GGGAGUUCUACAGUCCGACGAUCCCUGUGCUACACAUCGUAUGUACCGAAUCGGGAAAAAAAGGGAAAAAAAGGGAAAAAGGGAAAGUAUUAUGUUACGCCGUUCGGAUCUGCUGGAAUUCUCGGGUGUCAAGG` has a log2 enrichment of -0.86.

Series 2
Target: Histone acetyltransferase KAT6A, winged helix 1, GST fusion (KAT6A, Homo sapiens, UniProt Q92794, residues 1-85)
Method: protein binding microarray
Molecule type: double-stranded DNA, one strand shown
Matrix: in vitro
Tested at: not given
Setting: 8-mer, flanks averaged, mean of 2 arrays, mostly near background
Reference: not given
Reading: higher = stronger binding
Construct (chain): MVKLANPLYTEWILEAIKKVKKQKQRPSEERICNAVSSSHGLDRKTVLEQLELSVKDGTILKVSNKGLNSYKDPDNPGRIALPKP
The E-score of `AGAGTCCC` is reported as -0.044.
`GCTCGGAA` has an E-score of 0.0776.
The E-score of `AACGACTC` is reported as -0.202.
For `ACAGGGTC`, the E-score was -0.0579.
`CGGTGCTA` gave an E-score of 0.061.
`GCCGTCCC` gave an E-score of 0.346.
`ACATGGAG` has an E-score of -0.033.
With `AAGGTCCA` the E-score was -0.172.
With `ACACATGT` the E-score was 0.0177.
For `AAATTGTC`, the E-score was -0.122.
`AACTACCC` has an E-score of -0.0874.
`CCGGCCCG` gave an E-score of 0.399.
The E-score of `ACGGGTAC` is reported as 0.316.
`GAACCGCA` gave an E-score of 0.117.
The E-score of `AGAAGAGC` is reported as -0.017.
`AGAGGAGC` gave an E-score of -0.0683.
The E-score of `CATACCGG` is reported as 0.226.
`CCCCCGTC` gave an E-score of 0.273.
The E-score of `AGTAAAGG` is reported as -0.105.
`AGCAGCCG` has an E-score of 0.126.
With `CCGAGAAA` the E-score was 0.0782.
`CTAGTTTA` gave an E-score of 0.0532.
`CTTGATAC` gave an E-score of -0.214.
With `CTATGTGC` the E-score was -0.0627.
`CTGCCCGC` gave an E-score of 0.352.

Series 3
Target: Interferon regulatory factor 7, full length, phosphomimetic (IRF7, Homo sapiens, UniProt Q92985, residues 1-503, S471D/S472D/S475D/S476D/S477D/S483D/S484D/S487D)
Sequence of UniProt Q92985 (whole entry, unmodified, looked up): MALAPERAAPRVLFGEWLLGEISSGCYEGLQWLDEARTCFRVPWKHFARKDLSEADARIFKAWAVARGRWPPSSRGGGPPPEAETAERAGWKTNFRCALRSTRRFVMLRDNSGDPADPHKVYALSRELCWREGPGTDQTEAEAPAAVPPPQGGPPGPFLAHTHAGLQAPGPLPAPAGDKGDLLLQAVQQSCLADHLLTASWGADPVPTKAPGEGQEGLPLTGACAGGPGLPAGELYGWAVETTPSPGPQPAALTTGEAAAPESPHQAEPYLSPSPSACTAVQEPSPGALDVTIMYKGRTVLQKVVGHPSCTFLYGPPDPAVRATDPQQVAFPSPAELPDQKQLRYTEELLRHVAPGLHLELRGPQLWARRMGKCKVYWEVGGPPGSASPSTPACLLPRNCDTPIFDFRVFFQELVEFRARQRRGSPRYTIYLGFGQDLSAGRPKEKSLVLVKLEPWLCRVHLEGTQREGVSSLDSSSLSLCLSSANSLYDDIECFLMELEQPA
Method: protein-binding microarray
Molecule type: double-stranded DNA, one strand shown
Matrix: in vitro
Tested at: 2200 nM top
Setting: 60-bp whole probe
Added: salmon DNA 0.4 mg/ml
Reference: random background probes
Reading: higher = stronger binding
All sequences stand within: GCCTAGCAC … GTCTTGATTCGCTTGACGCTGCTG
Under “fitted relative affinity”, `GACGATTTCGGGTATCGAGGCGTGCTA` is recorded as 2.52 z-score.
`TTAGGTCTGCTTCTCCTTTAGTGCTAG`: “fitted relative affinity” 0.985 z-score.
`GACGGTATCGGGACTGGGGACGTGCTA`: “fitted relative affinity” -0.543 z-score.
`TGTTTCCTCTTTCTTTGCTTGTGCTAG` — result for “fitted relative affinity”: 4.36 z-score.
For `TCAGTTCTGAGTCTTCCACTGTGCTAG`, “fitted relative affinity” read 1.33 z-score.
Under “fitted relative affinity”, `GACGATTTAAGTTTCGAGACGTGCTAG` is recorded as 2.91 z-score.
`GACGGTTCACTTTTCCTGACGTGCTAG`: “fitted relative affinity” 1.72 z-score.
Under “fitted relative affinity”, `CCACTCTTGCTTTTTAGATCGTGCTAG` is recorded as 1.89 z-score.
For `CTGACTTTGGAGATGACTCAGTGCTAG`, “fitted relative affinity” read 0.133 z-score.
Under “fitted relative affinity”, `TCATTCCTAATTCTCTTACTGTGCTAG` is recorded as 1.92 z-score.
For `TCACCTTTTATATTGTAACTGTGCTAG`, “fitted relative affinity” read 1.8 z-score.
`GACGATCTCCTACTGCTGACGTGCTAG` — result for “fitted relative affinity”: 1.1 z-score.
Under “fitted relative affinity”, `TTAGGTATTGACTTTCGGTTAGTGCTA` is recorded as 5.95 z-score.
`TTAGGTCTCCTTATCCTTTAGTGCTAG` — result for “fitted relative affinity”: 0.875 z-score.
`TCAACTTTGGCATGTCTTACTGTGCTA`: “fitted relative affinity” 0.544 z-score.
`TTTGGTTTCGGTTCCGGTTAGTGCTAG`: “fitted relative affinity” 12.9 z-score.
Under “fitted relative affinity”, `CCTCACATGACTGAATGGACGTGCTAG` is recorded as 0.502 z-score.
`TTGGGTATCCTTTTCCTTTAGTGCTAG` — result for “fitted relative affinity”: 1.83 z-score.
`GACGGACTGCTTCTCCCGACGTGCTAG`: “fitted relative affinity” 0.539 z-score.

Series 4
Target: RING finger protein unkempt homolog, zinc fingers 1-6, SBP tag (UNK, Homo sapiens, UniProt Q9C0B0, residues 30-357)
Sequence of UniProt Q9C0B0 (30-357, looked up): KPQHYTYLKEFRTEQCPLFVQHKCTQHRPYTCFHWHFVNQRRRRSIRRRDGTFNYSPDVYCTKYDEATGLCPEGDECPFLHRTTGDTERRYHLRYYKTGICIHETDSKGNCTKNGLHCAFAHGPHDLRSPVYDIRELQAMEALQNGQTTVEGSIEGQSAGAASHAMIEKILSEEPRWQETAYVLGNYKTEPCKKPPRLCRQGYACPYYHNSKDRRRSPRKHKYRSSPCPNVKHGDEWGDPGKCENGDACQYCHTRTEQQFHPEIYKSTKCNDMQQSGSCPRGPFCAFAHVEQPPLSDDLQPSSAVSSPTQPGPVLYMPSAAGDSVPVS
Method: RNA Bind-n-Seq
Molecule type: RNA
Matrix: in vitro
Tested at: 100 nM
Setting: RNA with constant flanks, vertebrate orthologous sites, ends assumed
Reference: input RNA pool
Reading: higher = stronger binding
The bound/input enrichment of `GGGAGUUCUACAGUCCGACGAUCGUUAGGUCAUGACCCCUACAGGUUAGGUCAUGAUGCUUACAGGUUAGGACAGGACCCUUACAGAUUAGGCCAUGAUCCCUACAGACUAACUCCUGAUCCCUAUAGGAUGUCACCUAGACCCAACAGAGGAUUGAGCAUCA` is reported as 0.421 ratio.
`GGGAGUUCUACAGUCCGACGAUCCUCUCUGAGCGAUAGUAUUCCAUCUGUAGCAGAUUCACACUCCAGCCAUUUCUCCGAGUUCAGCUGCUCAGAUAUGGAAAGUAUGAAAACUUCCUGUAGCCAUGGCUCCAGCGACUAUCACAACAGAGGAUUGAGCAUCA` has a bound/input enrichment of 0.271 ratio.
The bound/input enrichment of `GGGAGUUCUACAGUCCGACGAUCGAAUUGAAAAGCCAGAGCUUCACCCAGGCCCCUGUUCACUAGGAGAUACAAAUAUUACAUUAGAAGAACAAUUAAACUCCAUAAAUUUAUCUUUUCAGGAUGAUCCAGACUCCAGUACCACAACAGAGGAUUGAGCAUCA` is reported as 1.21 ratio.
For `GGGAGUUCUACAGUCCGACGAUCAUCUCUCAUUUUAUAUGUCCAAAAAUGGCUUUGAAUUUUAAGCAAUUACUAGUUUUAAAUUAGCUCUGCCCUCAUGAAGUAUUAUUAUAAUUCACCAUAAACAGCUAUCUGUCUGAAUUACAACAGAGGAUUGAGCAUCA`, the bound/input enrichment was 1.36 ratio.
The bound/input enrichment of `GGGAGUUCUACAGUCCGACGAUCUCCUCAACUUGUUCUAGCUUGUGAUCCUUCAAAGUUGGGUCAGGCAUUAGUGCUAGGUACUAGGAAUUUUCAUUUCUCUAUUGCCAUUGAUCAGAGAGACAGACAUGAAAAACAGGAAUACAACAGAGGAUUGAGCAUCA` is reported as 0.364 ratio.
The bound/input enrichment of `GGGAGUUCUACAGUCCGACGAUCGCAAUGAAAAUACAGCCCUUCUCCCAGCCCCUUUUUUACUAGGAGAUACAAACGUUACCAUAGAAGAGCAAUUAAACUCAAUAAAUUUAUCUUUUCAGGAUGAUCCAGACUCCAGUACCACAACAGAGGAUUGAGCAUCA` is reported as 1.72 ratio.
With `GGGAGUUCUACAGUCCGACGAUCCCCAGAUUUUAGAUGUGAUAUGUAGGCUUUCAUUCCAGCUUGUUUUUGUCUUUUCUUGUUUAGAUACCAAUCUUUUAAAUUCUUGCAUUUUAGUAAGAAAGCUACCUUUUUAUGGAUGUUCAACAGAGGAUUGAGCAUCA` the bound/input enrichment was 1.45 ratio.
The bound/input enrichment of `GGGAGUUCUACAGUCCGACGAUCUAUUUUCUUAUUUUAGGUAUCAUUGCCCAGUGCCUAAGAUCUUUUAUGUUCAGCUCACUGUAGGAAAUAAUGAAUUUUUUGGGGAAGGAAAGACUCGACAAGCUGCUAGACACAAUGCUGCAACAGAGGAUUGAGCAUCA` is reported as 1.26 ratio.

Some of these lines once more (series 2):
The E-score of `AGAAGAGC` is reported as -0.017.
`AGAGGAGC` gave an E-score of -0.0683.
The E-score of `CATACCGG` is reported as 0.226.
`CCCCCGTC` gave an E-score of 0.273.
The E-score of `AGTAAAGG` is reported as -0.105.
`AGCAGCCG` has an E-score of 0.126.
